Measured values collected from several papers.
Numbered parts are unrelated; each lists some results of a single study.

Sample 1
Target: RNA binding protein fox-1 homolog 2, RRM domain, GST-SBP tag (RBFOX2, Homo sapiens, UniProt O43251-10, residues 100-194)
Method: RNA Bind-n-Seq
Form: RNA
Sample: in vitro
Concentration: 365 nM
Setting: natural RNA segment, single round, ends assumed
Baseline: no-protein control
Reading: higher = stronger binding
Under “RBNS enrichment (R)”, `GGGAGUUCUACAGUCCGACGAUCCUCCACACCCUCUGCCGACUACCACGGUGUGGAUUCAGCUCCCAAAUGACAAACCCAGCCCUUCCCAGUAUACUUGAAAAGCUUUCUUGUUAAAAUAAAAGGUGUCACUGUGGAAUUCUCGGGUGCCAA` is recorded as 0.366.
`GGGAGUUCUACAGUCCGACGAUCCAAGAGAAUUUUUAAUUGUAAAUGCAGACUUGGGAAGGACUUGGACUUUUAACCUGGUUUUGCUUUUGCUUUUCCUGACUCCCUUUGCUCAGAGUCAGUUGCACACCAGUUGGAAUUCUCGGGUGCCAA` — result for “RBNS enrichment (R)”: 0.791.
Under “RBNS enrichment (R)”, `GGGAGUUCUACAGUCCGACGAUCUUUAUAAGCAAAAACGUGCCGUUUAAACCACUGGAUCUAUCUAAAUGCCGAUUUGAGUUCGCGACACUAUGUACUGCGUUUUUCAUUCUUGUAUUUGACUAUUUAAUCCUUGGAAUUCUCGGGUGCCAA` is recorded as 0.454.
For `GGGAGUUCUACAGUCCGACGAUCUACAACGAACCGAUCACCAGCUCCUUUUCAUUUUUAACUCUUUAAAAGGAUUCAAACGCAACUCAAAUCUGUGCUGGACUUUUGAAAAACCACAAUUCAGGACCAAAUUUUGGAAUUCUCGGGUGCCAA`, “RBNS enrichment (R)” read 0.781.
Under “RBNS enrichment (R)”, `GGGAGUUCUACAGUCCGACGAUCUAAAAUGUGUCUAUACUUAGCAUUGUAAGGAAAAACAUCAUUACCAUAGAUAUUUAUUAUAUUUGAAAUCUAAUAUGAAUUGUUCAGAAUUUGAAACAUAAAUUUAAUAUUGGAAUUCUCGGGUGCCAA` is recorded as 2.88.

Sample 2
Target: Interferon regulatory factor 7, full length, phosphomimetic (IRF7, Homo sapiens, UniProt Q92985, residues 1-503, S471D/S472D/S475D/S476D/S477D/S483D/S484D/S487D)
UniProt Q92985, sequence (whole entry, unmodified, looked up): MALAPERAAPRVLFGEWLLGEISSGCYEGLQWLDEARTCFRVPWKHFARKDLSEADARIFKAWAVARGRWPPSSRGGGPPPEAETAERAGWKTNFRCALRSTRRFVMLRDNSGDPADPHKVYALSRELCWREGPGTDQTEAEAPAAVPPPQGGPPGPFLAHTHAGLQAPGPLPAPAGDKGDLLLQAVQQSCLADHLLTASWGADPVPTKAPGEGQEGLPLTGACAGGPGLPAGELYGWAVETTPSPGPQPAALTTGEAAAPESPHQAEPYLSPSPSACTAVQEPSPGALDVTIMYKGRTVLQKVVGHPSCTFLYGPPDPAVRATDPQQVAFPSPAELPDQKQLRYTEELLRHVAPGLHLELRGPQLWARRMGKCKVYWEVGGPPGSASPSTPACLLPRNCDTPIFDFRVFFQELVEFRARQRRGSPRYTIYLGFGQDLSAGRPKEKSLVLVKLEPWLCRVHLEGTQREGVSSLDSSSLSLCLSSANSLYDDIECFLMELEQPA
Method: protein-binding microarray
Form: double-stranded DNA, one strand shown
Sample: in vitro
Concentration: 2200 nM top
Setting: 60-bp whole probe
Added: salmon DNA 0.4 mg/ml
Baseline: random background probes
Reading: higher = stronger binding
Shared flanks, not repeated: GCCTAGCACT … GTCTTGATTCGCTTGACGCTGCTG
For `ATTTTATATGCTATGTACTGGTGCTA`, “fitted relative affinity” read 1.3 z-score.
Under “fitted relative affinity”, `CACCTGTGCTATTTATAACTGTGCTA` is recorded as 0.752 z-score.
For `TAGAACTGAGTATCGATTCGTGCTAG`, “fitted relative affinity” read 0.45 z-score.
`CAACTATTGCTTCCTCACTGTGCTAG` — result for “fitted relative affinity”: 1.76 z-score.
`CATATGTGACCTTTTTAACTGTGCTA`: “fitted relative affinity” 0.883 z-score.
Under “fitted relative affinity”, `TAGATCTCAGCATCGATTAGTGCTAG` is recorded as -0.194 z-score.
Under “fitted relative affinity”, `CATGTTTCTCAAATGTTACTGTGCTA` is recorded as 1.51 z-score.

Sample 3
Target: Prothrombin, mature alpha-thrombin (F2, Homo sapiens, UniProt P00734)
Method: aptamer microarray, sandwich
Form: DNA with 2'F-ANA
Sample: in vitro
Concentration: 200 nM
Setting: whole 15-mer aptamer, many near background
Added: Cy3 exosite-II aptamer, 400 nM
Reading: higher = stronger binding
Sequence: GGTTGGTGTGGTTGG
Under “mean fluorescence intensity”, `2'F-ANA at 3 5 6 7 10 11 12 14 15` is recorded as 53.1 a.u.
Under “mean fluorescence intensity”, `2'F-ANA at 2 3 4 5 7 10 11 12 14 15` is recorded as 46.2 a.u.
For `2'F-ANA at 1 3 5 6 9 10 12 13`, “mean fluorescence intensity” read 50.3 a.u.
Under “mean fluorescence intensity”, `2'F-ANA at 2 3 4 6 7 8 11 12 13` is recorded as 535 a.u.
For `2'F-ANA at 1 2 4 6 9 14`, “mean fluorescence intensity” read 49.2 a.u.
Under “mean fluorescence intensity”, `2'F-ANA at 2 4 11 14 15` is recorded as 106 a.u.

Mixed results
With `PhoQ, residues 284 288 289 292 302 303 AGHLVA` the fold induction was 18.9 (PhoP, residues 12 14 15 18 19 NMSFL (Escherichia coli, UniProt P23836); Sort-seq, item: YFP reporter; E. coli; PhoQ-PhoP variant library, added: 10 µM Mg2+; baseline: high Mg2+ state, higher = stronger signaling).

Excerpt of the above (sample 3):
Under “mean fluorescence intensity”, `2'F-ANA at 2 4 11 14 15` is recorded as 106 a.u.
Under “mean fluorescence intensity”, `2'F-ANA at 2 3 4 5 7 10 11 12 14 15` is recorded as 46.2 a.u.
For `2'F-ANA at 1 2 4 6 9 14`, “mean fluorescence intensity” read 49.2 a.u.
